Assay results collected from several papers.
Lines come from different studies, so protocols differ. ± gives the spread as reported.
Organism: Plasmodium falciparum

SMILES	assay	test system	conditions	scale	quantity	result
O[Si](CCCN1CCCCC1)(c1ccccc1)C1CCCCC1 (stereo not drawn)	parasite proliferation, SYBR Green	3D7	72 h		IC50	76 nM
Nc1cccc2c(=O)[nH]c(=O)oc12		K1, multidrug-resistant	up to 10 µg/mL		antiplasmodial activity	inactive
CCCCCCC(C)CC1=C(O)C(=O)c2c(C)cccc2C1=O (stereo not drawn)	parasite growth, [3H]hypoxanthine incorporation	D6 chloroquine-sensitive, human erythrocytes			IC50	73 nM
O=C1C(O)=C([C@H]2CC[C@H](c3ccc(Cl)cc3)CC2)C(=O)c2ccccc21	item: dihydroorotate, N-carbamoyl-L-aspartate	3D7 trophozoites	10-fold IC50, 2.5 h	relative to: untreated	metabolite level	increased
Cc1[nH]c2ccccc2c(=O)c1-c1ccc(Oc2ccccc2)cc1	parasite growth, SYBR Green	D6	72 h, blood stage		EC50	10 nM
COc1cccc(C(N)=O)c1O		K1, multidrug-resistant	up to 10 µg/mL		antiplasmodial activity	inactive
COc1ccc(C[C@H](N)C(=O)N[C@H]2[C@@H](O)[C@H](n3cnc4c(N(C)C)ncnc43)O[C@@H]2CO)cc1	parasite proliferation, SYBR Green	3D7	72 h		IC50	88 nM
COc1ccc(-c2c(C)nn3c(N)c(C#N)cnc23)cc1OC	parasite growth	Dd2-Polδ resistant lines, PI4KIIIβ E1316D	72 h	relative to: EC50 resistant over parental	fold resistance	~16 fold
CC[C@H](C)[C@@H](C(=O)O[C@@H](CC(C)C)C(=O)N[C@@H](CC(C)C)C(=O)N[C@@H](C)/C=C/C(=O)N1C(=O)C=C(OC)[C@@H]1C)N(C)C	schizont egress block		24 h		minimal effective concentration	≥ 10 µM
COc1ccc(C[C@H]2NC[C@H](O)[C@H]2OC(C)=O)cc1	parasite growth, SYBR Green				IC50	19.4 nM
Cc1cccc(C)c1CC1CN(C(=O)[C@@H](N)Cc2ccc(O)cc2)C1	male gamete formation, exflagellation	NF54 stage V gametocytes	1 µM, 48 h		inhibition	18 ± 8.2%
CC(C)c1ccc2c(c1)CC[C@H]1[C@](C)(CN)CCC[C@]21C	Giemsa microscopy	3D7	10 µM, 48 h		parasites at trophozoite or schizont stage	2.4%
CO\C=C(C(=O)OC)/C(C)=C\C=C\c1ccc(Cl)c(OC)c1	parasite proliferation, SYBR Green	3D7	72 h		IC50	230 nM
CC(CCCCCC(F)(F)F)CC1=C(O)C(=O)c2ccccc2C1=O (stereo not drawn)	parasite growth, [3H]hypoxanthine incorporation	D6 chloroquine-sensitive, human erythrocytes			IC50	5 nM
CC(C)n1nc(-c2ccc3oc(N)nc3c2)c2c(N)ncnc21	membrane feeding Anopheles gambiae	NF54 stage V gametocytes	2 µM, 48 h		reduction of infected mosquitoes	44%

Some of these lines once more:
SMILES	assay	test system	conditions	scale	quantity	result
CO\C=C(C(=O)OC)/C(C)=C\C=C\c1ccc(Cl)c(OC)c1	parasite proliferation, SYBR Green	3D7	72 h		IC50	230 nM
CC(CCCCCC(F)(F)F)CC1=C(O)C(=O)c2ccccc2C1=O (stereo not drawn)	parasite growth, [3H]hypoxanthine incorporation	D6 chloroquine-sensitive, human erythrocytes			IC50	5 nM
